Published values collected from several papers.
Every numbered part comes from another study and shows a few of its results, in no order. Positions count from the first letter of the parent shown.

Study 1 — target: CCNB1, cyclin fold, Cln2 fusion (human); method: yeast growth competition, sequencing; medium: yeast; notes: strong parent motif; baseline: not given; direction: higher = stronger binding
Starting sequence: INSM1 docking peptide (human); PKAIRKLHFEDEV; partner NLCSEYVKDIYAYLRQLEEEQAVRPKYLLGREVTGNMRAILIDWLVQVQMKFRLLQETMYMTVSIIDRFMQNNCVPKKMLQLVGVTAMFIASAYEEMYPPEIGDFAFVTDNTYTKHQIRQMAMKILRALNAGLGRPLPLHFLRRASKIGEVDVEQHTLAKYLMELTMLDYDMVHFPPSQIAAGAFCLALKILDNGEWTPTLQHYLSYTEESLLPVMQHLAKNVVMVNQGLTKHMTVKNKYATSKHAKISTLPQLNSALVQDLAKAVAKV
Change	normalised enrichment score
PEAIRKLHFEDEV [K2E]	3.78
PKPIRKLHFEDEV [A3P]	1.69
PKAIRKPHFEDEV [L7P]	-0.199
PKAIDKLHFEDEV [R5D]	0.0803

Study 2 — method: protein binding microarray; form: double-stranded DNA, one strand shown; medium: in vitro; tested at: not given; baseline: not given; direction: higher = stronger binding
Target: Histone acetyltransferase KAT6A, winged helix 2, GST fusion (KAT6A, Homo sapiens, UniProt Q92794, residues 85-181)
Notes: 8-mer, flanks averaged, mean of 2 arrays, mostly near background
Target sequence (chain): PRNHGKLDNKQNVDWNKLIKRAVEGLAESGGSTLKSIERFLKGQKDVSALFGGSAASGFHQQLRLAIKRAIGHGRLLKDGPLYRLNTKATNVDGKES
Oligonucleotide	E-score
CCACAAGG	0.032
AAGACGGT	-0.175
ATGATCGA	-0.135
CGTTCTCA	-0.189
ACGGGAGA	0.0192
ACTCTGTA	-0.0299
AAATTTGA	0.0723
CCGTCACA	0.0408
ATGCGTCA	-0.0244

Study 3 — method: protein-binding microarray; form: double-stranded DNA, one strand shown; medium: in vitro; tested at: 250 nM; notes: 60-bp whole probe; with: salmon DNA 0.4 mg/ml; baseline: random background probes; direction: higher = stronger binding; shared flanks, not repeated: GCCTAGCAC … GTCTTGATTCGCTTGACGCTGCTG
Target: Interferon regulatory factor 7, full length, phosphomimetic (IRF7, Homo sapiens, UniProt Q92985, residues 1-503, S101K/S471D/S472D/S475D/S476D/S477D/S483D/S484D/S487D)
Residues (chain): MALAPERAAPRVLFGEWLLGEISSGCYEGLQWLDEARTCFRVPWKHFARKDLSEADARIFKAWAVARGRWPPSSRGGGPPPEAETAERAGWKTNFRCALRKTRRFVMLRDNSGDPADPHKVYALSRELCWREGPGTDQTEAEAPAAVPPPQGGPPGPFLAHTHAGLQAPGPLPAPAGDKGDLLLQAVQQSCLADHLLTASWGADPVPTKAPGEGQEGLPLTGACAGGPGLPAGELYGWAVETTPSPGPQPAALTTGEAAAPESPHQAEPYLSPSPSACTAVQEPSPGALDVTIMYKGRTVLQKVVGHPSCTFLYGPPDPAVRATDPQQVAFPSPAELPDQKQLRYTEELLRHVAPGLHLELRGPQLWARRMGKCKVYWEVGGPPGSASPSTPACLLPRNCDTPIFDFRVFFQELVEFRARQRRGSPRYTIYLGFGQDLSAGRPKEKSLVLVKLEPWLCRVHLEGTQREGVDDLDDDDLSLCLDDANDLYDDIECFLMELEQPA
Oligonucleotide	log fluorescence
TCACAGAAGGGAAACAGGACTGTGCTA	-0.0265 z-score
TTAGAACTGAGTGTCGATTAGTGCTAG	-0.174 z-score
TTAGGTCTCCCTATCCTTTAGTGCTAG	0.324 z-score
TTATGTTTCGGTTCCGGTTAGTGCTAG	8.51 z-score
TTACGTTTCCTTTTCCTTTAGTGCTAG	3.96 z-score
GACGATTTCAGTCCCGAGACGTGCTAG	0.122 z-score
GTGCCCGCTGCTTCCGGTGCGTGCTAG	-0.0756 z-score
TTAGAATTCAGTATCGATTAGTGCTAG	0.947 z-score
TACGGACTGGACTATCGGGACGTGCTA	-0.549 z-score

Mixed results
Substance	target	test	test system	conditions	scale	endpoint	result
PhoQ, residues 284 288 289 292 302 303 NLALSC	PhoP, residues 12 14 15 18 19 QYFSL (Escherichia coli, UniProt P23836)	Sort-seq, refers to: YFP reporter	E. coli	PhoQ-PhoP variant library, with: 10 µM Mg2+	baseline: high Mg2+ state, higher = stronger signaling	fold induction	1.02

A few entries again (study 2):
Oligonucleotide	E-score
ACTCTGTA	-0.0299
AAATTTGA	0.0723
